# Results of several laboratories.
# A part holds a random share of what one study measured.

# Series 1
# Target: Hepatocyte nuclear factor 3-alpha (Foxa1, Mus musculus, UniProt P35582, residues 1-468, full length assumed)
# Sequence of UniProt P35582 (whole entry, looked up): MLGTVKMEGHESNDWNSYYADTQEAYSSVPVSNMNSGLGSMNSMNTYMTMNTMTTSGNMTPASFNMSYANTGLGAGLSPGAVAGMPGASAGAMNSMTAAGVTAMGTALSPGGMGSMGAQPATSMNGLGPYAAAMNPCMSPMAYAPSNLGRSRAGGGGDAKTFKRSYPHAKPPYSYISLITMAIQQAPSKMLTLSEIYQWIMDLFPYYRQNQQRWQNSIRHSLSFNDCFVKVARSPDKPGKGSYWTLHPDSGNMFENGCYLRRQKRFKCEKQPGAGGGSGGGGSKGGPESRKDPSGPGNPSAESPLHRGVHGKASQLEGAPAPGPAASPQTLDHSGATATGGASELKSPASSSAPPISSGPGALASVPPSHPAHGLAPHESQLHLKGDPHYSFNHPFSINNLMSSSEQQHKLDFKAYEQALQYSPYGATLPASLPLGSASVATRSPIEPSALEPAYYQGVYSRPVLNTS
# Technique: EMSA with sequencing
# Molecule type: double-stranded DNA, one strand shown
# Medium: in vitro
# Concentration: 10 and 20 nM
# Setting: whole designed probe, mean of two concentrations, ends assumed
# Baseline: negative control set to 0
# Reading: higher = stronger binding
# Constant ends, left off below: GTGAGCGGTGCCCATTGATGGGGAAC … TTTCACTGGGATCGTGGGGAC
Oligonucleotide,normalised bound fraction [ratio]
ATCTTCCCCCTCTTCCTTGCCCCACCAGCTCACCTTCCCGGGTTATTTGCAGATAGGAAAATAAATAAAGCCGGCATTCGTTAACCCTCTTCTGGCGCAAACTGCTGTTTGCTCTGGATGAATCATGGTCCTTTGGCGACGCCAGGCTCCGGGAGAGAGCACAACCGTGTCAGGGCCATGATCCGGGGTGGCC,0.346
CTTCTCCAGTTGAGTTTTCTTCATTCTGCAAATATGTGGCATTGGAAGCTGGAAAGAGGCTACTTGGCTGAAACCTTTCTGATGGAGTCTATGTAAACATACAGAAGAAAAAATGTGTAACTAAGGTTCATATCCCTTAAAAAGAATATGTAGACAATTCAAGTGGCTGTATTAAAAGTTTCACATTCTACCA,0.442
ATCTTCCCCCTCTTCCTTGCCCCACCAGCTCACCTTCCCGGGTTATTTGCAGATAGGACACTTACAGTAAGAAATAGACGTTAACCCTCTTCTGGCGCAAACTGCTGTTTGCTCTGGATGAATCATGGTCCTTTGGCGACGCCAGGCTCCGGGAGAGCAAAGCACCGTGTCAGGGCCATGATCCGGGGTGGCC,0.193
TATGTGGGAACTAATTGAGGACCATGTTTACAATGCGTACAAATCATAAATCAATTAGTTCATATTGATTTACAAACAAGGAAGAAAAAGTATTTGTTTACATTGATACTGTCCATGTAAACTTTTTTCAATTCAAAAGAAACACATAGTTCTGTCATAAAGTAGATTTTCTATCCCTTTTATTTTCTGAGCT,0.491
AACCAGCTACTTTGGTGACTCATTTTTCTCCCTAACCCATGCTATTATACACTAATCCATGCATAACTTCCCTTTAATACAGATGACACAGACTGTTTACTTAGGATGGTTTTGCAATATGCACACTAACAAAGACTTTGTGAGCAGGAAGAATACCAGTTATTCAACCAAGTTTAAGAAAACAGCTGAGTGG,0.436
TTCCACTTCCGGTCCGACTTCTAGCACCTCCCCTTATGGACTGTTGATATTGCGCATGCTCTAAATTAACTTGGAAGCCAATTTCAGCCCACAGTCAACAGGGAGCACACACATATTTAGAGACATCGTGCAGTTTCCGTAATCGGCGCTCACGGGCAGAGAATATAACCGCGCCCTTATGGTGTTTATTTGT,0.206
AACTAGTTTAACAACAAAAAAATTTTACATTTATTTCCATTTTTATGATTCAACTAGTTAATAGTTTTTCAAAAATATTACTATATCTTTCAAAGTAAACATAAAAATAATGAAATTTATGTCTGAGATATAAAATCTCAATTGGCTTTATAATAAATATATGCTTATTAATACATGTGGTAGATGTATGCAT,0.443
ATCTTCCCCCTCTTCCTTGCCCCACCAGCTCACCTACGGGGGTTATTTGCACAAAGGAAAATAAATAAAGCCGGCATTCGTTAACGCAGTTCACGCGCATACTGCTGTTTGCTCTGCATCTAACATGGTCCTTACGCGACGCCAGGCTCCGGGAGAGCAAAGCACCGTGTCAGGCGCATGATCCGGGGTGGCC,0.4

# Series 2
# Target: Prothrombin, mature alpha-thrombin (F2, Homo sapiens, UniProt P00734)
# Technique: aptamer microarray, sandwich
# Molecule type: DNA with 2'F-ANA
# Medium: in vitro
# Concentration: 200 nM
# Setting: whole 15-mer aptamer, many near background
# Added: Cy3 exosite-II aptamer, 400 nM
# Reading: higher = stronger binding
# Oligonucleotide: GGTTGGTGTGGTTGG
Modification,mean fluorescence intensity
2'F-ANA at 1 6 10 15,88.8 a.u.
2'F-ANA at 1 2 3 5 6 8 9 13 14,45.7 a.u.
2'F-ANA at 7 8 10 11 12 15,192 a.u.
2'F-ANA at 1 5 6 7 8 15,62.3 a.u.
2'F-ANA at 4 8 10 11 12 13 14,55.9 a.u.
2'F-ANA at 1 11 12 13 14,245 a.u.
2'F-ANA at 1 3 4 5 6 7 9 10 12 13 14,47.6 a.u.
2'F-ANA at 2 3 5 6 10 11 13 14,47.1 a.u.
2'F-ANA at 2 3 5 6 7 9 10 11 12 13 14 15,48.5 a.u.
2'F-ANA at 1 2 4 7 8 9 11 13 14,204 a.u.
2'F-ANA at 1 2 3 5 6 8 10 15,81.6 a.u.
2'F-ANA at 1 2 6 7 8 11 12 14 15,69.6 a.u.
2'F-ANA at 2 3 7 8 10 12 13 14,307 a.u.
2'F-ANA at 1 4 9 13 15,77 a.u.
2'F-ANA at 2 6 8 12 14,187 a.u.
2'F-ANA at 1 4 11 13 15,78.6 a.u.
2'F-ANA at 3 5 6 10 11 12 13,64.3 a.u.
2'F-ANA at 1 3 6 8 9 11 12 13 15,367 a.u.
2'F-ANA at 1 2 4 5 6 9 11 13 14 15,48.2 a.u.
2'F-ANA at 1 2 4 6 9 10 11 13,68.3 a.u.
2'F-ANA at 1 2 6 7 11 12 13 14 15,63.9 a.u.
2'F-ANA at 2 3 9 10 12 14 15,279 a.u.
2'F-ANA at 2 4 6 7 8 10 11 12 14 15,66.8 a.u.
2'F-ANA at 1 2 3 4 5 6 7 8 9 10 11 12,54.1 a.u.

# Series 3
# Target: RNA binding protein fox-1 homolog 2, RRM domain, GST-SBP tag (RBFOX2, Homo sapiens, UniProt O43251-10, residues 100-194)
# Technique: RNA Bind-n-Seq
# Molecule type: RNA
# Medium: in vitro
# Concentration: 365 nM
# Setting: natural RNA segment, single round, ends assumed
# Baseline: no-protein control
# Reading: higher = stronger binding
# Constant ends, left off below: GGGAGUUCUACAGUCCGACGAUC … UGGAAUUCUCGGGUGCCAA
# Residues (chain): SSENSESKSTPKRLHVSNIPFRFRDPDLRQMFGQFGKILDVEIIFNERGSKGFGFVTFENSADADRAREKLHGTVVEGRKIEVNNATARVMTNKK
Oligonucleotide,RBNS enrichment (R)
GCUCUGGAUUCACUCUUCCCUGUCGGCCGCGCAUGUGCUCAUCCCACUCUCCGCUAAGCGGGAGGCUGCUGUUAGAGCAGGCUGCUUCCUGCCUAAAGCAGGCCCUUCGG,0.855
GCCACCUGUACCUCACGGCUGCUAUGCUUGCGUGUUUCCACUGACGAUGGGGCCUCUUUCUAAAGGCAGUUGCUGCAAAUUCCAGUUCUUCCAAAAGUCACUUGAUUUAA,0.393
UCAUCCCUAGUAUCUGCUCUGCAAACCAUCUAGACAGAAGCAGUAGGCCUGGCUUUCUCAACUGCCUGAGGCUGUUGCGCAGCAUUGCUGCCUCAUGUGACUGCCGUGCC,0.259
AGUAAAGAAGUGAAUGAGUGGCCAAAGUCUAUAGAGGCUUCCCUUUAGCAAGCCCUGAGAUAUAGUAACUUCCUUGGUUAUGAGUCUUGUUGAAUGACUCCUUUUGGAAA,1.64
UCAGGUACAAUUUUUGUGUAAUAAAAGCCAGUGCAUUAAGUUUAUAUAGACUACUUUCUAUGCAAGACUGAGAUAUGGAAUAGAUAGGAAGAGAUAUGUACUGCUGGGUA,0.446
GAAGAAAGUGUCUAUAUUGGAACUAGGGUCAUUUGAAAGCUUCAGUCUCGGAACAUGACCUUUAGUCUGUGGACUCCAUUUAAAAAUAGGUAUGAAUAAGAUGACUAAGA,0.859
AUUACAAACAAUAAGAACAAGUUUUGGCAGCCAUGAUAAUAGGUCAUAUGUUGUGUUUGGUUCAAUUUUUUUUCCGUAAAUGUCUGCACUGAGGAUUUCUUUUUGGUUUG,3.18
AGUCUUCAGGCAGCAUGGCCAAGGUGAAGGAGCGACUUUGAGAUGCUCAUGGAAUCCAGUCGAGCAGAAGUUUCGGACAGCCCACCACAUCACCAUGUUCCUUGUUAACA,1.37
UGUCACAUCUAAAUGCUGCUGGUCGAUACUUUAUCAUUCCACAAACAUUUAUUCACUUCCAAAUAUGUUUUAUGUAUACCCACAUACAGUGUGUGGGAUUACAGCCAAAG,0.301
UUAGGAAGGGUUUUAUACAGACAGGUUAAAGGGCUCUGGUUUCAAGUCCCUUGUCCAUGCUGCACUGGGGCAGGCCGGUUGUUUGUGGUUUGUCCUACCAGCCACAGCUC,1.05
GUGCUGACGAUUUUCACACUGUGUUUACCACUCCAUCACCUCUCAACCUUUGCUUCGACAGGUCUUCACUCACGAUUUAUUCCUCCAGGUCUUUGAUUGGAGAGAGUAAC,0.444
UAAAUUAAAAACCACAAGUGUUUAUUGUAGUGGUUAAACUGUAGCAUCUCAGCAUCUGGGUGGAAGCUGCCUAUAUUUCUUCCCAGUUUAACUGGGGACCAUCUGUGAAA,0.664

# Series 4
# Target: Cyclic AMP-dependent transcription factor ATF-1, full length (ATF1, Homo sapiens, UniProt P18846, residues 1-271)
# Technique: protein-binding microarray
# Molecule type: hairpin DNA
# Medium: in vitro
# Concentration: not given
# Setting: whole hairpin DNA, median over replicate spots
# Baseline: not given
# Reading: higher = stronger binding
# Constant ends, left off below: GAGGCCG … CGGCCTCACACTC
# Construct (chain): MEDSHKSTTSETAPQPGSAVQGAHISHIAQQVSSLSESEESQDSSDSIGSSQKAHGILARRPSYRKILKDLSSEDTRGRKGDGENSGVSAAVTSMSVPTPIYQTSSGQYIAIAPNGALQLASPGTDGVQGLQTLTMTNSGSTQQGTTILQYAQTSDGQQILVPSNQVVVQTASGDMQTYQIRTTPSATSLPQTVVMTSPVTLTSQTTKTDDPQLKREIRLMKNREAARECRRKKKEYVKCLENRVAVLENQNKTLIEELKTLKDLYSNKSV
Oligonucleotide,median fluorescence
ACGAGGTCGTGCCTCCTGGCACGACCTCGT (5mC at 9 15 29 35),3240 a.u.
GATGACGTCAGCCTCCTGGCTGACGTCATC,17000 a.u.
GACGACGTCAGCCTCCTGGCTGACGTCGTC,6180 a.u.
GATCGCGTCAGCCTCCTGGCTGACGCGATC (5mC at 11 33),5420 a.u.
ACGCCGTCGTGCCTCCTGGCACGACGGCGT (5mC at 9 11 15 29 35),3680 a.u.
GCTGACGCGAGCCTCCTGGCTCGCGTCAGC (5mC at 29),4100 a.u.
GATGACGCCAGCCTCCTGGCTGGCGTCATC (5mC at 15),11900 a.u.
GCTGATGTCAGCCTCCTGGCTGACATCAGC,3530 a.u.
ACCGCGTCGTGCCTCCTGGCACGACGCGGT (5mC at 9 15 29),4060 a.u.
GATGACGTCTGCCTCCTGGCAGACGTCATC,7770 a.u.
GATGCGGTCAGCCTCCTGGCTGACCGCATC (5mC at 32),3320 a.u.
GCTGACGTCCGCCTCCTGGCGGACGTCAGC (5mC at 17),5110 a.u.
GATGACGTCAGCCTCCTGGCTGACGTCATC (5mC at 37),15900 a.u.
GCTGACGTCGGCCTCCTGGCCGACGTCAGC,5840 a.u.
ACGACCTCGTGCCTCCTGGCACGAGGTCGT (5mC at 9 13 15 29 35),3170 a.u.
CCGACGTCGTGCCTCCTGGCACGACGTCGG (5mC at 8 9 15 29 35),4460 a.u.

# Series 5
# Target: Histone acetyltransferase KAT6A, winged helix 1, GST fusion (KAT6A, Homo sapiens, UniProt Q92794, residues 1-85)
# Technique: protein binding microarray
# Molecule type: double-stranded DNA, one strand shown
# Medium: in vitro
# Concentration: not given
# Setting: 8-mer, flanks averaged, mean of 2 arrays, mostly near background
# Baseline: not given
# Reading: higher = stronger binding
# Target sequence (chain): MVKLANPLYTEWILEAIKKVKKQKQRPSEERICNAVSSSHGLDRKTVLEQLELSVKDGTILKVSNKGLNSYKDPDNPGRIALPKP
Oligonucleotide,E-score
ATGCAGCA,-0.246
CGAGCTGA,-0.119
GGTACAAA,-0.144
CAGATAGG,-0.117
TTCCACAA,-0.248
GCCGATCC,0.327
GCCAAACA,0.0449
ACACCTTA,-0.127
ACGATTAA,0.0612
AGCCCGGA,0.0879
GCTCTAAA,-0.0645
ACACTCGG,0.152
ACTTTTAG,-0.0123
TTGCCCAA,-0.0982
GGTAAAGA,-0.0435
GGCTCTTA,-0.12
GAGCCGTA,0.317
AGCTACCC,-0.156
GATCCTAC,-0.152

# Excerpt of the above (series 4):
Oligonucleotide,median fluorescence
GATGACGTCAGCCTCCTGGCTGACGTCATC,17000 a.u.
GATGACGTCTGCCTCCTGGCAGACGTCATC,7770 a.u.
ACGAGGTCGTGCCTCCTGGCACGACCTCGT (5mC at 9 15 29 35),3240 a.u.
GCTGACGCGAGCCTCCTGGCTCGCGTCAGC (5mC at 29),4100 a.u.
GATGCGGTCAGCCTCCTGGCTGACCGCATC (5mC at 32),3320 a.u.
